# Assay results gathered from unrelated publications.
# A part holds a random share of what one study measured. Changes are numbered by the printed parent chain.

# Series 1 — target: NFE2L1, bZIP domain (human); method: DHFR protein complementation; medium: yeast; relative to: wild-type JUN-FOS pair; reading: higher = stronger binding
# Notes: single substitutions, most at no-binding floor
# Starting sequence: JUN, bZIP domain (human); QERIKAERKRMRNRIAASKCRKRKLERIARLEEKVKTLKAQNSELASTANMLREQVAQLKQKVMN; partner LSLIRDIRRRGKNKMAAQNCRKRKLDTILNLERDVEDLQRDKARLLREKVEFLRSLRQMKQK
Variant,binding fitness [natural log]
A57L,-1.55
L52V,-1.52
I28C,-1.46
Q55V,-1.51
A29N,-1.54
A40S,-1.22
A46W,-1.54
K34L,-1.1
E33F,-1.39
K39R,-1.34
A29W,-1.18
A57W,-1.28
L31W,-1.16
T48Y,-1.35
V56W,-1.52
A57M,-1.23
A57S,-1.53
V35Y,-1.58
S47P,-1.49

# Series 2 — method: RNA Bind-n-Seq; molecule type: RNA; medium: in vitro; tested at: not given; relative to: input RNA pool; reading: higher = stronger binding
# Target: RING finger protein unkempt homolog, zinc fingers 1-6, GST-SBP tag (UNK, Homo sapiens, UniProt Q9C0B0, residues 30-357)
# Notes: RNA with constant flanks, human-mouse chimeric sites, ends assumed
# Constant ends, left off below: GGGAGUUCUACAGUCCGACGAUC … CAACAGAGGAUUGAGCAUCA
# Residues (chain): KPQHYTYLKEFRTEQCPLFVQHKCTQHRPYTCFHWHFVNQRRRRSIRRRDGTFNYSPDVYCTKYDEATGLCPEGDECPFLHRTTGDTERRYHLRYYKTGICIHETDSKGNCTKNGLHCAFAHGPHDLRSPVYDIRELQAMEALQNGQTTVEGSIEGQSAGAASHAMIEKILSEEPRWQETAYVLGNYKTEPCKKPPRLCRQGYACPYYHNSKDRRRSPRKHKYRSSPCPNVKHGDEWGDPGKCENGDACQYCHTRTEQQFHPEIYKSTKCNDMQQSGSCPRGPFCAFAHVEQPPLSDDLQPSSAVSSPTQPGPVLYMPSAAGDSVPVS
Sequence,bound/input enrichment
CUGUGUGUGCUGAAUAAAUGGCUUGUAAAGAAGUUUUUCCAAGCUGUACCCAUGUACGUUAUUAUAGUUGCUGCAAAAUGUCUCUUAUGAUAUUGAUUUUAUUUGUUAACUGAAGGUCUC,0.662 ratio
UAAGUCCAUUUGUAAGCCUUCGCUCAUAAAGUUUUAAAUUCUGGACCAAUAGUGUUUGUUUCCUGAUUAUUGUAUCCAAUACUUUGCCUAGUAUGUAACUCACUCUUCUGGAUAAAUAAA,2.09 ratio
CUGGCCUGGCCCUCCCCAGGGGCCUCCUUUCGUAUAGUCACUGCUUCUGCAUCAGAUACUUUCAGCUCCAAGUCCUGACUGGGUGGGGCACCCAUUUCAGGCAGAAGGUUUUGGUACCCU,0.294 ratio
UGUAGUUUCUUGAUUUAUCAUUUUUCUUGCUCGGGUUUUUCCUUUAGGAAAAGCCUAAAGAUUAGGUUGUAAGAAAAACAGAAGCCAUGUUUCGAAGGAAGACCUGUCAGGUAUUUCGUC,0.141 ratio
CCCCAAUACCAUUUGCAAGAGUUGGAAUGCACUCUCUUUUUUAAAAAACAUGUAUACAUUUUAGGGCUGUAGAUUUAUUUUCCUGGUUUCUUUUCCAAUUGCUGACUUUUGAGCACAGAA,2.02 ratio
GGAUUCCGCUUCCGGUUCCGUUGGGCUCGGUUCUCUCCUGAGCUACGUGUCUCUACGCUCUCAAUCCCGGUUGGGUAAAACAUGGAUCAGGUAAUGCAGUUUGUGGAGCCCAGCCGGCAG,0.064 ratio
CCCCACAACCAUUUGCAGGUCUGGAACUGCACUCUCUUUUUUAAAAAACAUGUAUACAUUUUAGGGCUGUAGACUUAUUUUCCUGGUUUUGUUUUUCAUUGCUGACUUUUGAGCACAGAA,1.47 ratio
CCCUCCCCGGGCCACCCACCCCUCCCGGCUCCCCGCCAGAGCAAGGUUUUCUUCUUAUUUCAUAGCAAAUAAGAAAAAUGUUCUACGCACAUUUUGUCCUCAGUAAAAGAGGGCCUCUGG,0.44 ratio
UCCCAAAUCCAGCAGCUCCUUGAAAUAUUGAGACAAACACUCCACACACAGGGAAGGCGAUAACAUUGUACAUUGGUUUACAUUUUUCUCCUUGAAUGAUUUUUCUAGAGGUCAUAGUGC,0.372 ratio
CCUGCUCAGAUCACCAUGAAAGUAAUCCAAGGCUUGUAUAGUGGGGUCACCACAGUGGAACUGGACACCCUGGCUGCUGAGACAGCCGCGACCUUGACUACUAAGCACCCUGACUAUGCC,0.157 ratio
UAAAUUAGGGCUGCCGUUUUCUGUUUCUCCCUGGGCUGCGGAAAGCCAGAAGAUUUUAUCUAGCUUAUACAAGGCUGCUGGAGCUUGCUCUUUUUUUCCACGAGGGUGUUUUUGGCUGCA,0.584 ratio

# Series 3 — method: DHFR PCA, deep sequencing; medium: yeast; with: (+)-ABA 0 µM; relative to: wild-type fitted maximum; reading: higher = stronger binding
# Target: ABI1, truncated, D143A, DHFR fusion (Arabidopsis thaliana)
# Notes: methotrexate growth selection, single substitutions
# Starting sequence: PYL1, truncated, DHFR fusion (Arabidopsis thaliana); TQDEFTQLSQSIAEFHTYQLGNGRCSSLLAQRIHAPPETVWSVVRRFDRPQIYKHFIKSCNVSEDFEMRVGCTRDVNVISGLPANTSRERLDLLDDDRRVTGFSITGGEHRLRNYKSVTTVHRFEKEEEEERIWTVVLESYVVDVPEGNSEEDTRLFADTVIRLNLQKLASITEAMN
Variant,relative binding score [%]
L156F,-6.58
T173Y,-5.37
P146G,8.94
G71R,0.0886
E128G,63.5
W134Y,63.8
V143N,-3.92
S9E,41.4
A30K,8.59
Y115S,4.33
S63F,2.73
L138M,3.93
L29H,30.9
D144H,1.95
L169F,-9.73
S9V,19.7
N114R,2.33
N61S,47

# Series 4 — target: CCNA1, cyclin fold, Cln2 fusion (human); method: yeast growth competition, sequencing; medium: yeast; notes: weak parent motif; relative to: not given; reading: higher = stronger binding
# Starting sequence: CDC6 docking peptide (human); TLKGRRLVFDNQL; partner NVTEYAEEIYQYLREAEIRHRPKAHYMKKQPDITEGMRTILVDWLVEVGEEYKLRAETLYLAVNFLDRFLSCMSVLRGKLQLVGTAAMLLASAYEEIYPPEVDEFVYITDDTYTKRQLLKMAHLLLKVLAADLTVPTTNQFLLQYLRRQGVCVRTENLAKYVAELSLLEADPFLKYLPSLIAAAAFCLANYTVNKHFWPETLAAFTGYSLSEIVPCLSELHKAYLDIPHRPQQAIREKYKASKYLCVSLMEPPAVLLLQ
Variant,normalised enrichment score
V8L,0.535
L7Y,0.389
L2A,0.0302
L13I,0.102
L13G,0.0504
T1M,0.172
L2G,0.112
N11A,0.434
Q12F,-0.121
L13S,0.325
L7N,0.201
N11T,0.192
G4F,0.0946
N11E,-0.0156
T1C,0.264
R5Y,-0.0685
L7F,0.275
F9Y,0.279
R5C,-0.143
Q12C,0.142
D10Q,0.221
L7Q,0.294
G4I,0.748
R6H,-0.0024
T1E,0.205

# Series 5 — method: RNA Bind-n-Seq; molecule type: RNA; medium: in vitro; tested at: 200 nM; notes: whole 134-nt RNA, ends assumed; with: 150 mM LiCl; relative to: input library; reading: higher = stronger binding; library: 7-deaza-guanosine replaces G
# Target: Fragile X messenger ribonucleoprotein 1, C-terminal low-complexity region (Fmr1, Mus musculus, UniProt P35922)
# Constant ends, left off below: GGGAGUUCUACAGUCCGACGAUC … UGGAAUUCUCGGGUGUCAAGG
Sequence,log2 enrichment
CACAGACAACACGCACCCACACAGACACAGAGGGAAGGGGUUGGGAUGGGGACAGGGUGCACAGAAAGGCGGGGUAGGACCCCAGCCCCU,-0.0707
UCCUCAAGUCCUGUGCUACACAUCGUAUGUACCGAAUCGGCGGGCGGGCGGAAAGUAUUAUGUUACGCCGUUCGGAUCUGCACUUCCAGC,0.819
ACCAUGCAGGUGGGCAUCUUUGGGAAGUGGGGCAAGGGGGGGAUAAAAAGGGGGGUAACACUUUGGGAACAGGUGGUCCCAGGUCGUUUC,0.984
GCAGGAAGUAAAAACAAAUGGAAAUGGUUCGGAUAGUGGCAGGGGUGGGGGUUGCUAAGGAAAGGGUGGGAUGGGAGUGGGUAAAGAGUU,1.41
UGCGGGCCGAGAAUCGGGAGCUGGGCAAACGCGUACAGGCACUGCAGGAGGAGAGUCGCUACCUACGGGCAGUCUUAGCCAACGAGACUG,-0.185
AGUCCUGUGCUACACAUCGUAUGUACCGAAUCGGGGAAAAAGGGGUGGGGAAAGGGGAAAGUAUUAUGUUACGCCGUUCGGAUCUGCACU,-0.256
UUGUGAUUAAGAUUUGUUCUUUUUCUCCCCUCUCUAUAGGAAGAUGAUCCCUAUGAUCUUGAAGAUGUUUCUGCACAGAAAUGAGGGAAA,-0.0885
GGUUUCUGGUGAGCUUCAUGGUUGACGCCCGGGGUGGUUCCAUGAGAGGAAGUCGCCACAACGGCCUGCGAGUGGUGAUCCCGCCACGGA,-4.38
UGUUGGAGGGACGAUGGUCCGCUCCGGGCAGGACCCUUACGCCCGCAACAAGUUCAACCAGGUGGAGAGUGAUAAGCUUCGAAUGGACAG,-3.63
AGUCCUGUGCUACACAUCGUAUGUACCGAAUCAAACCCCCAAACCCAAAUUUUUAAAAAAGUAUUAUGUUACGCCGUUCGGAUCUGCACU,1.13
CUGUGCUACACAUCGUAUGUACCGAAUCGGGGAAAAAAAGGGAAAAAAAGGAAAAAAAGGGGAAAGUAUUAUGUUACGCCGUUCGGAUCU,0.531

# Further values, each from its own experiment
Substance,target,test,system,setting,how to read,quantity,value
"PhoQ, residues 284 288 289 292 302 303 SSTLSG","PhoP, residues 12 14 15 18 19 FWNTL (Escherichia coli, UniProt P23836)","Sort-seq, refers to: YFP reporter",E. coli,"PhoQ-PhoP variant library, with: 10 µM Mg2+","relative to: high Mg2+ state, higher = stronger signaling",fold induction,0.836

# Some of these lines once more (series 3):
Variant,relative binding score [%]
P146G,8.94
G71R,0.0886
E128G,63.5
W134Y,63.8
V143N,-3.92
S9E,41.4
